Experimental data pooled from the literature.
Parts stem from different laboratories: compare values within a part only.

Study 1
Target: Histone acetyltransferase KAT6A, both winged helices, GST fusion (KAT6A, Homo sapiens, UniProt Q92794, residues 1-181)
Method: protein binding microarray
Form: double-stranded DNA, one strand shown
Sample: in vitro
Concentration: not given
Notes: 8-mer, flanks averaged, mean of 2 arrays, mostly near background
Relative to: not given
Reading: higher = stronger binding
Construct (chain): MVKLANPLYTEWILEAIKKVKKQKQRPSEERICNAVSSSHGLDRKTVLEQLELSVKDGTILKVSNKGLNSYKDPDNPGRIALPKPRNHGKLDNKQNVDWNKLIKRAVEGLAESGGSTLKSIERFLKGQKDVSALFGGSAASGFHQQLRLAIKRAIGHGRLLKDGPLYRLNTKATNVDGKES
Strand	E-score
CTAAGTTA	-0.0726
CGTTCCGA	0.0885
AGTTTACA	0.0239
ATATTGCC	-0.0989
CTAAACAG	-0.0466
CGGCAAGC	0.257
AACTAGGG	-0.24
GGCGTTAC	0.06

Study 2
Target: TAR DNA-binding protein 43, full length, His tag (TARDBP, Homo sapiens, UniProt Q13148, residues 1-414)
Method: RNA Bind-n-Seq
Form: RNA
Sample: in vitro
Concentration: 20 nM
Notes: 6-mer, flanks averaged, single round
Added: 150 mM KCl
Relative to: input library
Reading: higher = stronger binding
Strand	6-mer enrichment (R)
UUCACA	0.56
CUUUAA	0.588
UACAGU	0.625
CGGGUU	1.64
UUUUCU	0.673

Study 3
Target: Sal-like protein 4, full length isoform A (SALL4, Homo sapiens, UniProt Q9UJQ4, residues 1-1053)
Sequence of UniProt Q9UJQ4 (whole entry, looked up): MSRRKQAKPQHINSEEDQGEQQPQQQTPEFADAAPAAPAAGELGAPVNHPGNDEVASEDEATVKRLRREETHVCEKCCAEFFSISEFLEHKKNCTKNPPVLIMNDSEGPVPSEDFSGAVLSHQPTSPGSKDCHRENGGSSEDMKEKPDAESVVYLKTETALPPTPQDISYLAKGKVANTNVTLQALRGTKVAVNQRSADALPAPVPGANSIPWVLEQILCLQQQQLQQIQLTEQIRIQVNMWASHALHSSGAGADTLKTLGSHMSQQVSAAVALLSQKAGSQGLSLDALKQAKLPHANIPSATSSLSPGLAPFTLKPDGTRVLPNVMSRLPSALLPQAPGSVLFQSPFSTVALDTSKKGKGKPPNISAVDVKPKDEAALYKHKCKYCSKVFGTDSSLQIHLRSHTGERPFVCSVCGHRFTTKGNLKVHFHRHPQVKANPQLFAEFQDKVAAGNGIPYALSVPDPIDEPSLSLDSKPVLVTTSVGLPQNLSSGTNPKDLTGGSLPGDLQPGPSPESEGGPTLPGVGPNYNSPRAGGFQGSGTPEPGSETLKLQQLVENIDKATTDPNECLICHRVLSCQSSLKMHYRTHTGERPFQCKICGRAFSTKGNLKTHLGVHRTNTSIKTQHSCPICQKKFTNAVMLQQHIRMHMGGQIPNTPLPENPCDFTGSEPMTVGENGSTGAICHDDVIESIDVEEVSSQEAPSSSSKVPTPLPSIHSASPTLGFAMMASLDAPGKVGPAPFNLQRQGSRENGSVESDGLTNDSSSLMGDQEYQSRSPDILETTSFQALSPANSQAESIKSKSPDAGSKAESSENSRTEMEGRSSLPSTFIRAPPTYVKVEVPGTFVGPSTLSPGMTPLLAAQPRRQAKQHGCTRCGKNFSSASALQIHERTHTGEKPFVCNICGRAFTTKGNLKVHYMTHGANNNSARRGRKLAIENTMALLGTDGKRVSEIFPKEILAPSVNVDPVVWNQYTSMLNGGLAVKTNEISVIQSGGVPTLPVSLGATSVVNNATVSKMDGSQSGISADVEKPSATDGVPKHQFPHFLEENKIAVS
Method: universal PBM
Form: double-stranded DNA, one strand shown
Sample: in vitro
Concentration: 600 nM
Notes: 8-mer, flanks averaged, mean of replicates
Reading: higher = stronger binding
Strand	E-score
AGAATACT	0.222
CAGCAGAA	-0.023
CTACCTAG	0.0696
ACCATCAG	-0.113
ACCTCATC	-0.136
CAGACCCC	-0.358

Mixed results
Molecule	target	test	test system	conditions	scale	quantity	value
PhoQ, residues 284 288 289 292 302 303 SSTLSG	PhoP, residues 12 14 15 18 19 STHWV (Escherichia coli, UniProt P23836)	Sort-seq, item: YFP reporter	E. coli	PhoQ-PhoP variant library, added: 10 µM Mg2+	relative to: high Mg2+ state, higher = stronger signaling	fold induction	15.7

Excerpt of the above (study 1):
Strand	E-score
ATATTGCC	-0.0989
CTAAACAG	-0.0466
CGGCAAGC	0.257
